Experimental data gathered from unrelated publications.
Parts stem from different laboratories: compare values within a part only.

Study 1
Target: Replicase polyprotein 1ab, nsp13 helicase (rep, Severe acute respiratory syndrome coronavirus 2, UniProt P0DTD1)
Action: inhibitor
Concentration: 20 µM
| SMILES | inhibition [%] |
| --- | --- |
| CCN(CC)CCNC(=O)COc1ccc(OC)cc1 | -0.91 |
| OCCc1ccc(OCCn2ccnc2)cc1 | 1.33 |
| COC(=O)Nc1ccc(-c2nc(N3CCOCC3)c3cnn(C4CCN(C(=O)OC)CC4)c3n2)cc1 | 0.33 |
| CN1CCN(CCCN2c3ccccc3Sc3ccc(C(F)(F)F)cc32)CC1 | 7.54 |
| CCOc1ccc(S(=O)(=O)O)c2cccnc12 | -1.07 |
| O=c1[nH]nc2c3c(cccc13)N=C(CN1Cc3ccccc3C1)N2 | 1.78 |
| COC(=O)[C@H](Cc1cccc(C(=N)N)c1)[C@@H](C)NC(=O)c1ccc(-c2cc[n+]([O-])cc2)cc1 | 10.1 |
| Cc1ccc(C(=O)Nc2ccc(CN3CCN(C)CC3)c(C(F)(F)F)c2)cc1C#Cc1cnc2cccnn12 | 12.8 |
| COCCOc1ccc2c(c1)ncn2-c1ccc2cccc(N3CCC(N)CC3)c2n1 | 6.95 |
| CC(C)C[C@H](N)C(=O)O | 1.72 |
| CCCCCCCCCCOc1cc2c(O)c(C(=O)OCC)cnc2cc1OCC | 2.78 |
| C=C[C@]1(C)C[C@@H](OC(=O)CS[C@@H]2C[C@H]3CC[C@@H](C2)N3C)[C@]2(C)[C@H](C)CC[C@]3(CCC(=O)[C@H]32)[C@@H](C)[C@@H]1O | 5.03 |
| CCO/N=C(\C(=O)N[C@@H]1C(=O)N2C(C(=O)[O-])=C(Sc3nc(-c4cc[n+](C)cc4)cs3)CS[C@H]12)c1nsc(NP(=O)(O)O)n1 | 4.61 |
| OC(c1ccccc1)C1CCN(CCc2ccccc2)CC1 (stereo not shown) | 7.07 |
| Nc1nc(OCc2ccccc2)c2nc[nH]c2n1 | 12.3 |
| O=C(CCN1CCN(C(=O)OCc2cc(Cl)cc(Cl)c2)CC1)c1ccc2[nH]c(=O)oc2c1 | 2.65 |
| COc1ccc(-c2nc(C(=O)N3CCN(C)CC3)sc2-c2ccc(OC)cc2)cc1 | -2.4 |
| CC(=O)O[C@@]12CO[C@@H]1C[C@@H](O)[C@@]1(C)C(=O)[C@H](O)C3=C(C)[C@@H](O)C[C@@](O)([C@@H](OC(=O)c4ccccc4)[C@H]21)C3(C)C | 4.93 |
| CC1(C)CCC(C)(C)c2cc(C3(c4ccc(C(=O)O)cc4)OCCO3)ccc21 | 2.1 |
| c1ccc2c(c1)OCC(C1=NCCN1)O2 (stereo not shown) | 7.11 |
| CC(C)(C)c1ccc(/C=C/C(=O)Nc2ccc3c(c2)OCCO3)cc1 | -3.48 |
| CC(=O)c1ccc2c(c1)N(CCCN(C)C)c1ccccc1S2 | 2.54 |
| Cn1cc(C(F)(F)F)nc1-c1ccc(OCC(O)CNCCOc2ccc(O)c(C(N)=O)c2)cc1 (stereo not shown) | 0.1 |
| O=C(C(c1ccccc1)c1ccccc1)N1CCN(CC(O)COc2cccc3ncccc23)CC1 (stereo not shown) | 2.21 |
| Oc1ccc(O)cc1 | 4.67 |

Study 2
Target: Histone acetyltransferase KAT6A, winged helix 1, GST fusion (KAT6A, Homo sapiens, UniProt Q92794, residues 1-85)
Technique: protein binding microarray
Form: double-stranded DNA, one strand shown
Medium: in vitro
Concentration: not given
Setting: 8-mer, flanks averaged, mean of 2 arrays, mostly near background
Reference: not given
Reading: higher = stronger binding
Residues (chain): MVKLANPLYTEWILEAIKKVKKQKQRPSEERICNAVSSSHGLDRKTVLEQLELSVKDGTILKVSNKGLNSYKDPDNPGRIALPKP
| Strand | E-score |
| --- | --- |
| AAAAGTTT | -0.156 |
| ATGACACG | 0.00521 |
| GAGTCTAA | -0.139 |
| CCTTAGCA | -0.0872 |
| CAAAACCG | 0.147 |
| AGACAGGC | 0.067 |
| GTCAAGTA | -0.205 |
| CAACGCAG | -0.0165 |

Study 3
Cell line: HEK-293T
Organism: VSV pseudotyped with SARS-CoV-2 spike
Concentration: 10 µM
Time: 16 h
| SMILES | pseudovirus infection [%] |
| --- | --- |
| C[C@H]1O[C@@H](O[C@H]2[C@@H](O)C[C@H](O[C@H]3[C@@H](O)C[C@H](O[C@H]4CC[C@@]5(C)[C@H](CC[C@@H]6[C@@H]5C[C@@H](O)[C@]5(C)[C@@H](C7=CC(=O)OC7)CC[C@]65O)C4)O[C@@H]3C)O[C@@H]2C)C[C@H](O)[C@@H]1O | 0.97 |
| Clc1ccccc1CN1CCc2sccc2C1 | 87.1 |
| CN1CCCCC1CCN1c2ccccc2Sc2ccc([S+](C)[O-])cc21 (stereo not shown) | 57.4 |
| CN(C)CCC=C1c2ccccc2COc2ccccc21 | 49.8 |
| Cc1ncc(C[n+]2csc(CCO)c2C)c(N)n1 | 76.4 |

Study 4
Target: Replicase polyprotein 1ab, main protease (rep, Severe acute respiratory syndrome coronavirus 2, UniProt P0DTD1)
Observed: enzyme activity
Action: inhibitor
Concentration: 20 µM
Setting: hit confirmation, with DTT
| Compound | inhibition [%] |
| --- | --- |
| C[C@H]1COC2=C1C(=O)C(=O)c1c2ccc2c1CCCC2(C)C | 64.3 |
| C[C@@](Cc1ccc(O)c(O)c1)(NN)C(=O)O | -7.6 |
| CCN(CC)c1ccc(C(=C2C=CC(=[N+](CC)CC)C=C2)c2ccccc2)cc1 | -16.4 |
| O=NN(CCCl)C(=O)NC1CCCCC1 | 2.6 |
| C=C1C(=O)O[C@H]2[C@H]1CC/C(C)=C/CC[C@@]1(C)O[C@@H]21 | 89.5 |
| CO/N=C(\C(=O)N[C@@H]1C(=O)N2C(C(=O)O)=C(CSC(=O)c3ccco3)CS[C@H]12)c1csc(N)n1.Cl | -4.2 |

Study 5
Target: Sal-like protein 4, full length isoform A (SALL4, Homo sapiens, UniProt Q9UJQ4, residues 1-1053)
UniProt Q9UJQ4, sequence (whole entry, looked up): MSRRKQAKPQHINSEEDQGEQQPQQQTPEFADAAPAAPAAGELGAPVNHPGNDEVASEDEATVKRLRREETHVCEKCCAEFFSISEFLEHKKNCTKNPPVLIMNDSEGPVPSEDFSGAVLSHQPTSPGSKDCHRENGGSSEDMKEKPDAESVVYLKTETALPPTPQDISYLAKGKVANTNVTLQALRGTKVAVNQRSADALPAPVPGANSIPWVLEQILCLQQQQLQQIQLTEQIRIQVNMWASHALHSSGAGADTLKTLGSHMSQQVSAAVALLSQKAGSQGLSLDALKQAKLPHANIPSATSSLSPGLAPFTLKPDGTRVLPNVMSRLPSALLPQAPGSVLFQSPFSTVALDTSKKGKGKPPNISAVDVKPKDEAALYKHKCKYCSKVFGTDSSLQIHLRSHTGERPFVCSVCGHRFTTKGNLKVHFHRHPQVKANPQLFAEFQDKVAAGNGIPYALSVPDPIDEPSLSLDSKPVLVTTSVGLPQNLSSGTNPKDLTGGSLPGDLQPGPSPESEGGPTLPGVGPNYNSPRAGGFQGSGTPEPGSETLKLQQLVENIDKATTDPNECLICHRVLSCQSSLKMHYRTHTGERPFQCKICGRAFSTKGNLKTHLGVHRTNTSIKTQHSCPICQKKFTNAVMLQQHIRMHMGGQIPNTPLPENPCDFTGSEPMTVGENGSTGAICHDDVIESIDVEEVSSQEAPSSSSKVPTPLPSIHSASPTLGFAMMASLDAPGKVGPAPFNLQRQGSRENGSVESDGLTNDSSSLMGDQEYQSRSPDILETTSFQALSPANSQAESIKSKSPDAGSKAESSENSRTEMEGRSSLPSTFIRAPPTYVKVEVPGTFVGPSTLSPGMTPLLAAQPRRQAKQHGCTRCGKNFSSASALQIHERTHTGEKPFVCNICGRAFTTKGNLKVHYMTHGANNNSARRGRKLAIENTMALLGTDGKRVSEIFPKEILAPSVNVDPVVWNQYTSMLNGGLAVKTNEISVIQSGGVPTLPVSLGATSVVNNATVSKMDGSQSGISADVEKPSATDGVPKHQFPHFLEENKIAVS
Technique: universal PBM
Form: double-stranded DNA, one strand shown
Medium: in vitro
Concentration: 600 nM
Setting: 8-mer, flanks averaged, mean of replicates
Reading: higher = stronger binding
| Strand | E-score |
| --- | --- |
| ATGGCAAT | 0.103 |
| GAGTAAGC | -0.126 |
| CTGCGGAA | -0.198 |
| AATTATGA | 0.447 |
| AATTGCGC | 0.138 |
| AACACTTC | 0.14 |
| CACCTGGG | -0.276 |
| GAGCAGAC | -0.062 |
